# Assay results of several laboratories.
# Protocols differ between the studies behind these lines. Values joined by “and” are separate records of one study, mostly repeats; a detail may differ. Numbers after ± are the reported error.
Structure (SMILES),tested on,test,test system,setting,quantity,result
COc1ccccc1-c1n[nH]c2nc(N[C@H]3CC[C@H](NS(=O)(=O)CC(C)C)CC3)ncc12,Leishmania donovani,cell growth,"promastigotes, LdBOB CRK6 overexpressing",,EC50,1.34 ± 0.07 nM
Cn1c(=O)c(-c2ccccc2Cl)cc2cnc(Nc3cccc(S(C)(=O)=O)c3)nc21,Cryptosporidium parvum,parasite growth,"HCT-8, UGA1 nanoluciferase",48 h,EC50,65 ± 5 nM
CCC1(CC)CC(=O)N(C2CCOc3ccc(C(=O)NC4CC(C)(C)Oc5ccccc54)cc32)C(=N)N1 (stereo not shown),Plasmodium falciparum,parasite growth,W2Mef,,EC50,0.3 nM
O=C(NCc1ccc(Cl)cn1)C(=O)C(Cc1ccccc1)NC(=O)C1CC(F)CN1C(=O)C(NC(=O)C1CCC(F)(F)CC1)C1CCCCC1 (stereo not shown),HCoV-NL63,viral replication,LLC-MK2,,EC50,2600 nM
O=S(=O)(c1ccc(-c2ccc3ncnc(Nc4ccc(OCc5ccc(F)cc5)c(Cl)c4)c3c2)cc1)N1CCOCC1,Plasmodium falciparum,"parasite growth, SYBR Green fluorescence","C235 (TM91C235), drug-resistant",,EC50,240 nM
C[C@H](Oc1ccc(C(=O)c2ccc(F)cc2)cc1)C(=O)N1CCc2ccc(C(F)(F)F)cc21,Plasmodium falciparum,"parasite growth, SYBR Green",3D7,72 h,EC50,28.3 nM
Fc1cccc(COc2ccc(Nc3ncnc4ccc(-c5cccc(CN6CCOCC6)c5)cc34)cc2Cl)c1,Plasmodium falciparum,"parasite growth, SYBR Green fluorescence","C235 (TM91C235), drug-resistant",,EC50,290 nM
CCN(CC)CCCC(C)Nc1ccnc2cc(Cl)ccc12 (stereo not shown),Plasmodium falciparum,parasite growth,K1,,EC50,553 ± 106 nM
CC1(C)Cc2sc(NC(=O)Cc3ccc(S(N)(=O)=O)cc3)c(C#N)c2CN1CC1CCCCC1,Dengue virus 2,viral replication,P15-S8 passaged with DMSO,,EC50,8.89 nM and 7.67 nM
C[C@H]1Cc2c([nH]c3cc(Cl)c(F)cc23)[C@@]2(N1)C(=O)Nc1ccc(Cl)cc12,Plasmodium falciparum,parasite growth,Dd2,,EC50,1.7 ± 0.2 nM
COc1ccccc1-n1ccnc1SCC(=O)Nc1cc(C(F)(F)F)ccc1Cl,Plasmodium falciparum,"parasite growth, SYBR Green",3D7 wild type,72 h,EC50,429 ± 140 nM
CC(C)(C)OC(=O)N1CCN(S(=O)(=O)c2ccc(-c3ccc4ncnc(Nc5ccc(OCc6cccc(F)c6)c(Cl)c5)c4c3)cc2)CC1,Plasmodium falciparum,"parasite growth, SYBR Green fluorescence","W2, drug-resistant",,EC50,580 nM
CCC1(CC)CC(=O)N(C2c3cc(C(=O)NC4c5ccccc5CC4O)ccc3OC2(C)COC)C(=N)N1 (stereo not shown),Plasmodium falciparum,parasite growth,3D7,blood stage,EC50,0.7 nM
CCCN(Cc1nnc(-c2ccco2)o1)C(=O)C1CCCN(C(=O)c2ccc(Cl)cc2)C1 (stereo not shown),Plasmodium falciparum,"parasite growth, SYBR Green",3D7 wild type,72 h,EC50,163 ± 49 nM
O=C1C(O)=C([C@H]2CC[C@H](c3ccc(Cl)cc3)CC2)C(=O)c2ccccc21,Plasmodium falciparum,parasite growth,W2Mef,,EC50,63.9 ± 18.5 nM
O=S(=O)(c1ccc(-c2ccc3ncnc(Nc4ccc(OCc5cccc(F)c5)c(Cl)c4)c3c2)cc1)N1CCSCC1,Plasmodium falciparum,"parasite growth, SYBR Green fluorescence","W2, drug-resistant",,EC50,1600 nM
C[C@H](NC(=O)[C@@H](O)c1cc(F)cc(F)c1)C(=O)N[C@@H]1C(=O)N(C)c2ccccc2-c2ccccc21,Dengue virus,"viral replication, inhibitor, luciferase",NHDF,48 h,EC50,18.3 nM
CN(C)c1cccc(-c2ccc3ncnc(Nc4ccc(OCc5cccc(F)c5)c(Cl)c4)c3c2)c1,Plasmodium falciparum,"parasite growth, SYBR Green fluorescence","C235 (TM91C235), drug-resistant",,EC50,550 nM
COc1ccccc1-n1c(SCC(=O)Nc2ccccc2F)nc2cccnc21,Plasmodium falciparum,parasite growth,Dd2,,EC50,162 ± 44 nM
COc1cc(Nc2ncnc3ccc(-c4ccc(S(=O)(=O)N5CCOCC5)cc4)cc23)ccc1OCc1cccc(F)c1,Plasmodium falciparum,"parasite growth, SYBR Green",D6,blood stage,EC50,440 nM
O=C1NC2(CC2)COc2ncc(F)cc2[C@H]2COCCN2c2ccn3ncc1c3n2,,,"Sprague-Dawley rat, male, epididymides","oral, 5 mg/kg/day, end of treatment, 4-week repeated-dose toxicity",epididymis weight,1.03 ± 0.066 g
OC(c1cc(C(F)(F)F)nc2c(C(F)(F)F)cccc12)C1CCCCN1 (stereo not shown),Plasmodium falciparum,parasite growth,W2Mef,,EC50,25 ± 2.8 nM
C[C@H](NC(=O)Cc1cc(F)cc(F)c1)C(=O)N[C@@H]1C(=O)N(C)c2ccccc2-c2ccccc21,dengue virus 2,viral replication,"Huh-7.5.1, luciferase reporter",48 h,EC50,55 nM
Cc1cc(Nc2ccc(Cl)cc2)n2nc(C(F)(F)F)nc2n1,Plasmodium falciparum,parasite growth,,,EC50,3220 ± 1300 nM
CN1CCN(c2cccc(-c3ccc4ncnc(Nc5ccc(OCc6cccc(F)c6)c(Cl)c5)c4c3)c2)CC1,Plasmodium falciparum,"parasite growth, SYBR Green fluorescence","C235 (TM91C235), drug-resistant",,EC50,110 nM
Cc1nc2ccc(-c3ccc(OC(F)(F)F)cc3)cc2c(O)c1C#N,Plasmodium falciparum,"parasite growth, SYBR Green",3D7 wild type,72 h,EC50,158 ± 29 nM
CC(NC(=O)c1cccc(C(c2ccccc2)N2C(=N)NC(C)(C(C)C)CC2=O)c1)c1ccccc1 (stereo not shown),Plasmodium falciparum,parasite growth,Dd2-NITD609,,EC50,7.9 nM
O=S(=O)(c1ccc(-c2ccc3ncnc(Nc4ccc(OCc5cccc(F)c5)c(Cl)c4)c3c2)cc1)N1CCCC1,Plasmodium falciparum,"parasite growth, SYBR Green fluorescence","W2, drug-resistant",,EC50,800 nM

# For quick reference, copied from above:
Structure (SMILES),tested on,test,test system,setting,quantity,result
CC(C)(C)OC(=O)N1CCN(S(=O)(=O)c2ccc(-c3ccc4ncnc(Nc5ccc(OCc6cccc(F)c6)c(Cl)c5)c4c3)cc2)CC1,Plasmodium falciparum,"parasite growth, SYBR Green fluorescence","W2, drug-resistant",,EC50,580 nM
C[C@H](NC(=O)[C@@H](O)c1cc(F)cc(F)c1)C(=O)N[C@@H]1C(=O)N(C)c2ccccc2-c2ccccc21,Dengue virus,"viral replication, inhibitor, luciferase",NHDF,48 h,EC50,18.3 nM
